Results collected from several papers.
Each line is one published result; not all experiments were run side by side. ± marks the error that the study gave.
ERBB2: Receptor tyrosine-protein kinase erbB-2 (ERBB2, Homo sapiens, UniProt P04626)
UniProt P51956, sequence (whole entry, looked up): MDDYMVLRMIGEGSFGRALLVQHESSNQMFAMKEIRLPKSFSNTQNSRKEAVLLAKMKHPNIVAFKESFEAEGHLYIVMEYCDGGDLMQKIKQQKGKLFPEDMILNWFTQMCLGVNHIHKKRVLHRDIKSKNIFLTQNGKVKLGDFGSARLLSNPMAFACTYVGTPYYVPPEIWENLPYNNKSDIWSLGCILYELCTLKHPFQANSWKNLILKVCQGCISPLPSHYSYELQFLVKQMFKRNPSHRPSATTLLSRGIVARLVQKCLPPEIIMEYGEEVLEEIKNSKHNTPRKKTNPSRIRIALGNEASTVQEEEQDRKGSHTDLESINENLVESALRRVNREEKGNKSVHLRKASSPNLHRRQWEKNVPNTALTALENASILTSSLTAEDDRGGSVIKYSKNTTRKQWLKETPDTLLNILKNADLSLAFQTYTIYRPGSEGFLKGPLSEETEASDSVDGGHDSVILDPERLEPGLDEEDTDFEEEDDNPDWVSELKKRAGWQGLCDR
UniProt P42336, sequence (whole entry, looked up): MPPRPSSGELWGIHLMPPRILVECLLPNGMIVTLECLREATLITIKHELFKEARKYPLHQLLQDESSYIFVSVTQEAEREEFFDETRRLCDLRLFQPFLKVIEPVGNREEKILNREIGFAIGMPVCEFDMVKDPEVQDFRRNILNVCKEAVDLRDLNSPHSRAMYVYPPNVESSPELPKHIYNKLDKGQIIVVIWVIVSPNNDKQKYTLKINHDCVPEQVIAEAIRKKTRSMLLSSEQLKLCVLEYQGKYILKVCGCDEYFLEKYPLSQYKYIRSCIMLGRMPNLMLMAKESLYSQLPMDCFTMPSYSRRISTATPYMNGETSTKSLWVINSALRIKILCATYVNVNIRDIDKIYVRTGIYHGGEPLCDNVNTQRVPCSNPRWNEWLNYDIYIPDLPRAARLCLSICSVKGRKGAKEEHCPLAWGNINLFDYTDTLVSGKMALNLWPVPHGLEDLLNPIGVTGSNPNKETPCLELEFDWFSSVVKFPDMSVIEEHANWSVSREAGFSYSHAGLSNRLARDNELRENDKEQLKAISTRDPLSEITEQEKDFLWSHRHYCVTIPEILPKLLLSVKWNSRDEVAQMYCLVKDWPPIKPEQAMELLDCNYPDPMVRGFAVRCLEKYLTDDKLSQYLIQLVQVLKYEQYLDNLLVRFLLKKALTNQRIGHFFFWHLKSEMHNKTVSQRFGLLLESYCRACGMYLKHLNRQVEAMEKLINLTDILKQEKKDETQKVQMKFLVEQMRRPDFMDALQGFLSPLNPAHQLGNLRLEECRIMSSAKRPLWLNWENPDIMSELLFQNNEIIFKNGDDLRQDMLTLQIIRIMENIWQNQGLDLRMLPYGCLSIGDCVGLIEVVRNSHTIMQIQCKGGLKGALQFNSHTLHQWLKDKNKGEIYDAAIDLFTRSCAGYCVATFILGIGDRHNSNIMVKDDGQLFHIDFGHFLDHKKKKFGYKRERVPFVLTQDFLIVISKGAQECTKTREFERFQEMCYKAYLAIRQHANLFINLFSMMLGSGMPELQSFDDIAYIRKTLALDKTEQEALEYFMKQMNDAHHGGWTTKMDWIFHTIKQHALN
UniProt P09619, sequence (whole entry, looked up): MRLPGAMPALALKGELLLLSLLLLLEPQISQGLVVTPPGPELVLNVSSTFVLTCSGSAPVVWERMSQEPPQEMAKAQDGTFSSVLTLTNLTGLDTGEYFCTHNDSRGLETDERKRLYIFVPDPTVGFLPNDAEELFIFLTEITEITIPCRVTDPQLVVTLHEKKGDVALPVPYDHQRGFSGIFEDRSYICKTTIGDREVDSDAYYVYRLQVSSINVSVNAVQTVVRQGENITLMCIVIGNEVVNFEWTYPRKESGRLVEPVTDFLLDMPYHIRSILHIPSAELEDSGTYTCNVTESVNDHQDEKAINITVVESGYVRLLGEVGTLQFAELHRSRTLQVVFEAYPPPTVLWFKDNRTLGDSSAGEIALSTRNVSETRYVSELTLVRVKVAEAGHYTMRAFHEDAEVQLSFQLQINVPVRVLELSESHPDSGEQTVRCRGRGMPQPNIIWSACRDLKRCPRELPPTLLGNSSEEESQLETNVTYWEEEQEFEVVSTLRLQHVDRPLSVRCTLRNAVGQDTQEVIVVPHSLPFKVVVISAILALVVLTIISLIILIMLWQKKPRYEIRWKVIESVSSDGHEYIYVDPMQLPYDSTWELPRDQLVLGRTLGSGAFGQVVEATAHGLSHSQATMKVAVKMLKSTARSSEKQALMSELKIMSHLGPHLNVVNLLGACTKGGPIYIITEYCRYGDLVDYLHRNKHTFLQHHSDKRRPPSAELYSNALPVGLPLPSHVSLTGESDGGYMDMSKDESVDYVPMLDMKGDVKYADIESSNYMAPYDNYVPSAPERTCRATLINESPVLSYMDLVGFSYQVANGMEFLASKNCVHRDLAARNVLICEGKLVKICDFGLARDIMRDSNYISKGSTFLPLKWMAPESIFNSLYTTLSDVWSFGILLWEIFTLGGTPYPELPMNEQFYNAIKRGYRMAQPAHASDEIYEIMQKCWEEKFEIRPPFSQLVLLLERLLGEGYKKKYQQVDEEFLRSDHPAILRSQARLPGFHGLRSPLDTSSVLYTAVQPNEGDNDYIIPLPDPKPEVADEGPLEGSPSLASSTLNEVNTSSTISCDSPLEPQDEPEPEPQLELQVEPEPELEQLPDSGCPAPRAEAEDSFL
UniProt P50552, sequence (whole entry, looked up): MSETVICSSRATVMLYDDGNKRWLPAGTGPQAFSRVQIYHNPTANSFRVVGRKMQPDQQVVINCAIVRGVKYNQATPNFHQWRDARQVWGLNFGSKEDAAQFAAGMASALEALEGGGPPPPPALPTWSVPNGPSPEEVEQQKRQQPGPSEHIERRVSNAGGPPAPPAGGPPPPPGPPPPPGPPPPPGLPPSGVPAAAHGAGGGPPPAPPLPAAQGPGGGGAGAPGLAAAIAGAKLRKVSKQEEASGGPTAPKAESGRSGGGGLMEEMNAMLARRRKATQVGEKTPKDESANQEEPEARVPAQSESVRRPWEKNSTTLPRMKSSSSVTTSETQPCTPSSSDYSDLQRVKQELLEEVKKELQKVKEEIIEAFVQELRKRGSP
UniProt P21554, sequence (whole entry, looked up): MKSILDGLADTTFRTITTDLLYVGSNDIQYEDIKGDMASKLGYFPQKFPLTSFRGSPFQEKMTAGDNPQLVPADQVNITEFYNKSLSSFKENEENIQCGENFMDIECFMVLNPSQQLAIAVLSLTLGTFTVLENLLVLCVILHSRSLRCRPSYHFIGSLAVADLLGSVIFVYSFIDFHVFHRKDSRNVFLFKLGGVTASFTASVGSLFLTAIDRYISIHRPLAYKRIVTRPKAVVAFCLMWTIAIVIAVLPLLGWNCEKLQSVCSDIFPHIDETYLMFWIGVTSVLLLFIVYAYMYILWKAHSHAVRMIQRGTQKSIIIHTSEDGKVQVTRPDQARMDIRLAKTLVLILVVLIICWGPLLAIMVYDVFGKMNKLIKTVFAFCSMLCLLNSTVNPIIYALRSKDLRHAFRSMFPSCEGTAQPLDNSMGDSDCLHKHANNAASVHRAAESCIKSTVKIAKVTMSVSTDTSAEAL
UniProt P41143, sequence (whole entry, unmodified, looked up): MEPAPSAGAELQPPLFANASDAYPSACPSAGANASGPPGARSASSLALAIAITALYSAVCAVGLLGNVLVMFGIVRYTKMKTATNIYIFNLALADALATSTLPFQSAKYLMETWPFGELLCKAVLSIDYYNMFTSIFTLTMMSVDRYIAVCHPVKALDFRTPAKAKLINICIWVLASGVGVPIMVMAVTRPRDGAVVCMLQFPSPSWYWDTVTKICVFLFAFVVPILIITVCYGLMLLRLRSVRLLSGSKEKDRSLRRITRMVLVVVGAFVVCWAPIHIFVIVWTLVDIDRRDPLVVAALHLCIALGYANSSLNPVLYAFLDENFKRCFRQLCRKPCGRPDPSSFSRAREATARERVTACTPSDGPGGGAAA
UniProt Q96SW2, sequence (whole entry, looked up): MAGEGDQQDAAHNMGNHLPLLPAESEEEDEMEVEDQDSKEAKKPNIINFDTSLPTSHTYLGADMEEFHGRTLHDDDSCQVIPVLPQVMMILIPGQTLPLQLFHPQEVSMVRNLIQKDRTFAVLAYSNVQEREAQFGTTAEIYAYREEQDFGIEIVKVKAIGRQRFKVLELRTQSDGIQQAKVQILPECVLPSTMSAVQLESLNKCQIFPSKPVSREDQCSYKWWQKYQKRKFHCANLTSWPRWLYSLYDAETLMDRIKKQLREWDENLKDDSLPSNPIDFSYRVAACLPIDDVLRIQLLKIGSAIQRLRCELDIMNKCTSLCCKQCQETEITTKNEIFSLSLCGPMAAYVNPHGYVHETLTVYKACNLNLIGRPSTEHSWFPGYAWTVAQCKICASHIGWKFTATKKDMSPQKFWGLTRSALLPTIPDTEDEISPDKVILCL
UniProt P0DMV8, sequence (whole entry, looked up): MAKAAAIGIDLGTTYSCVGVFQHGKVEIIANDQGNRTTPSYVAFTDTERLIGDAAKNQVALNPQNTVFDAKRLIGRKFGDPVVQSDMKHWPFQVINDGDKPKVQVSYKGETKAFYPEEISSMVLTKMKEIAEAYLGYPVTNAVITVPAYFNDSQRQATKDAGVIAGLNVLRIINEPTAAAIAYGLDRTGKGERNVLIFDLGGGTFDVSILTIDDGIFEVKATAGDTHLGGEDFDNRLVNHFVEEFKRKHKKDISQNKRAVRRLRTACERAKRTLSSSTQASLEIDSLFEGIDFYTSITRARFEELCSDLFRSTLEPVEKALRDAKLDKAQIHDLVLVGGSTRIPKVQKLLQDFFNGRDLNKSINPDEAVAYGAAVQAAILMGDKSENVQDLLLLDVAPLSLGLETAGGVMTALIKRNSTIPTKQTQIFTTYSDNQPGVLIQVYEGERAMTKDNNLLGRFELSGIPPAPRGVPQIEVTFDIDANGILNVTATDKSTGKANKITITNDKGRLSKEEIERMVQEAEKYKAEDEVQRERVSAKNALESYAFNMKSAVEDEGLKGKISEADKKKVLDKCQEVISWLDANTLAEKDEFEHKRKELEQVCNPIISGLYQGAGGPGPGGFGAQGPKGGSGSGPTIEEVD

`CCCC[C@H](NC(=O)[C@H](CCC(=O)O)NC(=O)[C@H](CCCCN)NC(=O)[C@H](CO)NC(=O)[C@H](Cc1ccccc1)NC(C)=O)C(=O)N[C@@H](CCCNC(=N)N)C(=O)N[C@@H](CC(N)=O)C(=O)N[C@@H](CCCNC(=N)N)C(=O)N[C@@H](Cc1ccc(O)cc1)C(=O)N[C@@H](Cc1c[nH]c2ccccc12)C(=O)N[C@@H](CCCC(=O)NCCN(CC(=O)NCCN(CC(=O)NCCN(CC(=O)NCCN(CC(=O)N[C@@H](CCCNC(=N)N)C(N)=O)C(=O)Cn1cnc2c(=O)[nH]c(N)nc21)C(=O)Cn1ccc(N)nc1=O)C(=O)Cn1ccc(N)nc1=O)C(=O)Cn1cnc2c(=O)[nH]c(N)nc21)C(=O)N[C@@H](CS)C(=O)N[C@@H](C)C(=O)N[C@@H](CC(C)C)C(=O)N[C@@H](CC(=O)O)C(=O)N1CCC[C@H]1C(=O)N[C@@H](CC(N)=O)C(=O)N[C@@H](CC(C)C)C(=O)N[C@H](C(=O)N[C@@H](CC(N)=O)C(=O)N[C@@H](CCC(N)=O)C(=O)N[C@@H](CCC(N)=O)C(=O)N[C@@H](CCCCN)C(=O)N[C@@H](CCCNC(=N)N)C(=O)N[C@@H](C)C(=O)N[C@@H](CCCCNC(=O)CN(CCNC(=O)CN(CCNC(=O)CN(CCNC(=O)CN(CCNC(=O)[C@H](CCCNC(=N)N)NC(C)=O)C(=O)Cn1ccc(N)nc1=O)C(=O)Cn1cnc2c(=O)[nH]c(N)nc21)C(=O)Cn1cnc2c(=O)[nH]c(N)nc21)C(=O)Cn1ccc(N)nc1=O)C(=O)N[C@H](C(=O)N[C@@H](CCCNC(=N)N)C(=O)N[C@@H](CO)C(=O)N[C@H](C(=O)N[C@@H](Cc1ccc(O)cc1)C(=O)N[C@@H](CCC(=O)O)C(=O)N[C@@H](CCC(=O)O)C(=O)NCC(=O)N[C@@H](CCC(=O)O)C(N)=O)[C@@H](C)CC)[C@@H](C)CC)[C@@H](C)O` has a Kd of 0.0021 µM (ERBB2; binding, SPR; 25 °C, immobilised target).
`O=C(N[C@@H]1c2ccccc2C[C@H]1N1CCCC1)c1ccc(-c2ccnc3[nH]ccc23)nc1` gave a Kd of 0.061 µM (cAMP-dependent protein kinase catalytic subunit PRKX (PRKX, Homo sapiens, UniProt P51817); binding, competition with immobilised ligand).
With `CSCC[C@H](NC=O)C(=O)N[C@@H](CCCNC(=N)N)C(=O)N[C@H](C(=O)NCC(=O)N[C@@H](CC(N)=O)C(=O)N[C@@H](C)C(=O)N[C@@H](CC(N)=O)C(=O)NCC(=O)NCC(=O)N[C@@H](CCCCNC(=S)Nc1ccc2c(c1)C(=O)OC21c2ccc(O)cc2Oc2cc(O)ccc21)C(=O)O)[C@@H](C)O` the Kd was 32.1 ± 2.98 µM (Uncharacterized protein YejA (yejA, Escherichia coli, UniProt P33913, D495A); binding, fluorescence polarisation; YejA variant D477A).
`CNCCCC[C@H](NC(=O)[C@@H](NC(=O)[C@H](CCCNC(=N)N)NC(=O)[C@H](C)N)[C@@H](C)O)C(=O)N[C@@H](CCC(N)=O)C(=O)N[C@H](C(=O)N[C@@H](C)C(=O)N[C@@H](CCCNC(=N)N)C(=O)N[C@@H](CCCCN)C(=O)N[C@@H](CO)C(=O)N[C@H](C(=O)NCC(=O)NCC(=O)N[C@@H](CCCCN)C(=O)N[C@@H](C)C(N)=O)[C@@H](C)O)[C@@H](C)O` has a Kd of 4.3 µM (Polycomb protein Sfmbt (Sfmbt, Drosophila melanogaster, UniProt Q9VK33); fluorescence polarization; pH 8.0).
`COc1ccccc1-c1n[nH]c2nc(NC3CCN(C(=O)Cc4ccc(F)cc4F)CC3)ncc12` gave a relative abundance of 1.07 (bead binding, competition bead pull-down, measured: LMJF.36.5010; Leishmania donovani axenic amastigote extract; 10 µM; relative to: vehicle).
For `CC(=O)N[C@@H](CO)C(=O)N[C@@H](Cc1ccccc1)C(=O)N[C@@H](CCC(=O)O)C(=O)N[C@@H](Cc1ccccc1Cl)C(=O)N1CCC[C@]12C=C[C@@H]1CC[C@@H](C(=O)N3CC[C@@H]4C=C[C@H]5CC[C@@H](C(=O)N[C@H](C(=O)N[C@@H](CCC(=O)O)C(=O)N[C@@H](CC(=O)O)C(=O)N[C@@H](CCC(=O)O)C(=O)N[C@@H](CC(C)C)C(N)=O)[C@@H](C)O)N5C(=O)[C@H]43)N1C2=O`, the Kd was 0.56 µM (Vasodilator-stimulated phosphoprotein (VASP, Homo sapiens, UniProt P50552); binding, ITC).
With `C(#C[P+](c1ccccc1)(c1ccccc1)c1ccccc1)c1ccccc1` the Kd was roughly 28.4 µM (Heat shock 70 kDa protein 1A, substrate-bound (HSPA1A, Homo sapiens, UniProt P0DMV8); ITC; ADP-bound, NRLLLTG pre-incubated).
`CCN(CC)C(=O)c1ccc(C(c2cccc(O)c2)N2CC(C)N(Cc3ccccc3)CC2C)cc1` (stereo not shown) gave a Ki of 0.00039 ± 0.00011 µM (Delta-type opioid receptor (OPRD1, Homo sapiens, UniProt P41143, K108D)).
For `O=C1NC(=O)c2c1c1cc(F)c[n+]3c1c1c2c2cc(O)ccc2[n]1[Ru-4]312([N]=C=S)[S+]3CC[S+]1CC[S+]2CC3` (stereo not shown), the remaining activity was 95% (Serine/threonine-protein kinase Nek3 (NEK3, Homo sapiens, UniProt P51956); enzyme activity; 100 nM, human enzyme, together with: 10 µM ATP; relative to: untreated).
With `Cc1ccc2c(C(C[N+](=O)[O-])c3cccs3)c(-c3ccccc3)[nH]c2c1` (stereo not shown) the EC50 was 0.19 µM (Cannabinoid receptor 1 (CNR1, Homo sapiens, UniProt P21554); β-arrestin recruitment, agonist, luciferase).
The Kd of `CCOC(=O)C(C)(COP(=O)(OC)OCCCCCCNC(=O)c1cc2ccccc2oc1=O)C(=O)CSC(C)=O` (stereo not shown) is reported as 7.27 µM (Retinal rod rhodopsin-sensitive cGMP 3',5'-cyclic phosphodiesterase subunit delta (PDE6D, Homo sapiens, UniProt O43924); ligand displacement, FP).
For `CC(=O)N[C@@H](Cc1ccccc1Cl)C(=O)N1CCC[C@H]1C(=O)N1CCC[C@H]1C(=O)N1CC[C@@H]2C=C[C@H]3CC[C@@H](C(=O)N[C@H](C(=O)N[C@@H](CCC(=O)O)C(=O)N[C@@H](CC(=O)O)C(=O)N[C@@H](CCC(=O)O)C(=O)N[C@@H](CC(C)C)C(N)=O)[C@@H](C)O)N3C(=O)[C@H]21`, the Kd was 0.6 µM (Protein enabled homolog (ENAH, UniProt Q8N8S7); binding, fluorescence).
The Kd of `CC[C@H](C)[C@H](NC(=O)[C@H](CCCCN)NC(=O)[C@H](C)NC(=O)[C@H](CCCNC(=N)N)NC(=O)[C@H](CCCCN)NC(=O)[C@H](CCC(N)=O)NC(=O)[C@H](CCC(N)=O)NC(=O)[C@H](CC(N)=O)NC(=O)[C@@H](NC(=O)[C@H](CC(C)C)NC(=O)[C@H](CS)NC(=O)[C@@H]1CCCN1C(=O)[C@H](CC(=O)O)NC(=O)[C@H](CC(C)C)NC(=O)[C@H](C)NC(=O)[C@H](C)NC(=O)[C@H](CCC(=O)O)NC(=O)[C@H](Cc1c[nH]c2ccccc12)NC(=O)[C@H](Cc1ccc(O)cc1)NC(=O)[C@H](CCCNC(=N)N)NC(=O)[C@H](CC(N)=O)NC(=O)[C@H](CCCNC(=N)N)NC(=O)[C@H](CCSC)NC(=O)[C@H](CCC(=O)O)NC(=O)[C@H](CCCCN)NC(=O)[C@H](CO)NC(=O)[C@H](Cc1ccccc1)NC(C)=O)[C@@H](C)O)C(=O)N[C@@H](CCCNC(=N)N)C(=O)N[C@@H](CO)C(=O)N[C@H](C(=O)N[C@@H](Cc1ccc(O)cc1)C(=O)N[C@@H](CCC(=O)O)C(=O)N[C@@H](CCC(=O)O)C(=O)NCC(=O)N[C@@H](CCC(=O)O)C(N)=O)[C@@H](C)CC` is reported as 0.009 µM (ERBB2; binding, SPR).
With `C=CC[C@H]1OC(=O)CCNC(=O)[C@H](C)N(C)C(=O)[C@H]([C@@H](C)CC)N(C)C(=O)[C@H]([C@@H](C)CC)NC(=O)[C@@H]2[C@@H](C)CCN2C1=O` the Kd was 8.35 µM (Platelet-derived growth factor receptor beta, extracellular domain (PDGFRB, Homo sapiens, UniProt P09619); SPR; 28 °C, extracellular domain immobilised).
`CN(C)[C@H]1C[C@@]23CC[C@@]4(O2)C(=CC[C@]2(C)[C@@H](c5ccc6ccncc6c5)CC[C@H]24)C=C3[C@@H](O)[C@@H]1O` has an inhibition of 4% (Scaffold protein ILK (ILK, Homo sapiens, UniProt Q13418); probe labelling, inhibitor, KiNativ ATP probe MS; native lysate; 0.1 µM).
For `O=C1NC2(CC2)COc2ncc(F)cc2[C@H]2COCCN2c2ccn3ncc1c3n2`, the reticulocytes was 2.08 ± 0.69% (Sprague-Dawley rat, female, blood; oral, 20 mg/kg/day, end of recovery, 4-week repeated-dose toxicity; relative to: red blood cells).
With `O=C(O)CN(c1ccccc1)S(=O)(=O)c1ccccc1` the Kd was 5200 µM (Beta-lactamase (ampC, Escherichia coli K-12, UniProt P00811)).
With `C[C@H]1NC(=O)[C@H](CCC(=O)N[C@@H](CCCCN)C(N)=O)NC(=O)[C@@H](C)NC(=O)[C@H](Cc2ccc(F)cc2)NC(=O)[C@H](Cc2c[nH]c3ccccc23)NC(=O)[C@H](CCCNC(=N)N)NC(=O)[C@H](Cc2ccc(O)cc2)NC(=O)[C@H](CCCNC(=N)N)NC1=O` the Kd was 2.5 µM (Bifunctional glutamate/proline--tRNA ligase (EPRS1, Homo sapiens, UniProt P07814); binding).
For `CC(C)(C)C(=O)OCOP(=O)(OCOC(=O)C(C)(C)C)C1CCCN(O)C1=O` (stereo not shown), the TGI was 14.1 µM (M14).
`C=C[C@H]1CN(Cc2ccccn2)C(=O)[C@@H]2CCC[C@H]1N2Sc1cc(Cl)cc(Cl)c1` has a Kd of 7.37 ± 0.89 µM (uncharacterized protein, residues 23-253 (Pseudomonas aeruginosa, UniProt Q9HYX8); binding, competitive fluorescence polarization; 30 min, protein 40 nM, together with: fluorescent tracer 1 nM).
`CS(C)(=O)=Nc1ccc(-c2ccc(-c3nc4cc(O[C@@H]5CO[C@H]6[C@@H]5OC[C@H]6O)[nH]c4cc3F)cc2)cc1` gave an inhibition of -2% (Phosphatidylinositol 4,5-bisphosphate 3-kinase catalytic subunit alpha isoform, with p85 alpha (PIK3CA, Homo sapiens, UniProt P42336); kinase activity; 10 µM).
For `CSCC[C@@H](N)C(=O)N[C@H](C)C(=O)N[C@H](C)C(=O)N[C@@H](C(=O)N[C@H](C)C(=O)NCC(=O)N[C@H](CC(C)C)C(=O)N[C@H](Cc1ccc(O)cc1)C(=O)NCC(=O)N[C@H](CC(C)C)C(=O)NCC(=O)N[C@H](CCC(=O)O)C(=O)N[C@H](CC(=O)O)C(=O)N[C@H](CCCNC(=N)N)C(=O)N[C@H](CCC(N)=O)C(=O)N[C@H](Cc1c[nH]cn1)C(=O)N[C@H](CCCNC(=N)N)C(=O)N[C@H](CCCCN)C(=O)N[C@H](CCCCN)C(=O)N[C@H](CCC(N)=O)C(N)=O)C(C)C`, the Kd was 7.1 µM (Sh, DEL6-46 (Drosophila melanogaster, UniProt P08510); ion current, blocker, inside-out patch clamp; +30 mV).
`CC[C@H](C)[C@H](NC(=O)[C@@H](NC(=O)[C@@H](N)CCC(N)=O)C(C)C)C(=O)N[C@H](C(=O)N[C@H](C(=O)NCC(=O)N[C@H]1CC(=O)NC1=O)[C@@H](C)CC)[C@@H](C)O` gave a Kd of 0.0539 µM (Protein cereblon, with DDB1 (CRBN, Homo sapiens, UniProt Q96SW2); binding).
The Kd of `CC1(C)C(NC(=O)C(=NOC2(C(=O)O)CC2)c2csc(N)n2)C(=O)N1OS(=O)(=O)O` (stereo not shown) is reported as 45 µM (Beta-lactamase SHV-11 (Escherichia coli, UniProt Q7X575); binding, SPR).
`CC(C)C[C@H](NC(=O)[C@H](CCP(=O)(O)O)NC(=O)[C@@H](NC(=O)[C@@H](NC(=O)[C@H](CCCNC(=N)N)NC(=O)[C@H](CC(C)C)NC(=O)[C@H](CO)NC(=S)Nc1ccc2c(c1)C(=O)OC21c2ccc(O)cc2Oc2cc(O)ccc21)[C@@H](C)O)C(C)C)C(=O)NCC(=O)N[C@@H](C)C(=O)NCC(=O)N[C@@H](C)C(=O)N[C@@H](Cc1c[nH]c2ccccc12)C(=O)N[C@@H](CC(C)C)C(=O)N[C@H](C(=O)N1CCC[C@H]1C(=O)N[C@@H](CCCNC(=N)N)C(=O)O)C(C)C` has a Kd of 17.3 µM (14-3-3 protein gamma (YWHAG, Homo sapiens, UniProt P61981); binding, fluorescence anisotropy; pH 7.5, FITC-labelled phosphopeptide titration).

Repeated from above:
With `C[C@H]1NC(=O)[C@H](CCC(=O)N[C@@H](CCCCN)C(N)=O)NC(=O)[C@@H](C)NC(=O)[C@H](Cc2ccc(F)cc2)NC(=O)[C@H](Cc2c[nH]c3ccccc23)NC(=O)[C@H](CCCNC(=N)N)NC(=O)[C@H](Cc2ccc(O)cc2)NC(=O)[C@H](CCCNC(=N)N)NC1=O` the Kd was 2.5 µM (Bifunctional glutamate/proline--tRNA ligase (EPRS1, Homo sapiens, UniProt P07814); binding).
For `CC(C)(C)C(=O)OCOP(=O)(OCOC(=O)C(C)(C)C)C1CCCN(O)C1=O` (stereo not shown), the TGI was 14.1 µM (M14).
`C=C[C@H]1CN(Cc2ccccn2)C(=O)[C@@H]2CCC[C@H]1N2Sc1cc(Cl)cc(Cl)c1` has a Kd of 7.37 ± 0.89 µM (uncharacterized protein, residues 23-253 (Pseudomonas aeruginosa, UniProt Q9HYX8); binding, competitive fluorescence polarization; 30 min, protein 40 nM, together with: fluorescent tracer 1 nM).
`CS(C)(=O)=Nc1ccc(-c2ccc(-c3nc4cc(O[C@@H]5CO[C@H]6[C@@H]5OC[C@H]6O)[nH]c4cc3F)cc2)cc1` gave an inhibition of -2% (Phosphatidylinositol 4,5-bisphosphate 3-kinase catalytic subunit alpha isoform, with p85 alpha (PIK3CA, Homo sapiens, UniProt P42336); kinase activity; 10 µM).
